Published values from different studies.
Each line is one published result; not all experiments were run side by side.
Organism: Enterococcus faecium

Structure (SMILES)	assay	test system	conditions	MIC
CC(C)CCCCCCCCC/C=C/C(=O)N[C@@H](CC(=O)O)C(=O)N[C@H]1CNC(=O)[C@@H]2CCCN2C(=O)[C@H](C(C)C)NC(=O)[C@@H](CN)NC(=O)CNC(=O)[C@H](CC(=O)O)NC(=O)CNC(=O)[C@H](CC(=O)O)NC(=O)[C@H](CC(=O)O)NC(=O)[C@H]2CCCCN2C1=O	broth microdilution	daptomycin-resistant isolate, Mueller-Hinton broth, Mg2+ 10 mg/L	16 h, with: Ca2+ 10 mM	2 µg/mL
CN[C@H](CC(C)C)C(=O)N[C@H]1C(=O)N[C@@H](CC(N)=O)C(=O)N[C@H]2C(=O)N[C@H]3C(=O)N[C@H](C(=O)N[C@H](C(=O)O)c4cc(O)cc(O)c4-c4cc3ccc4O)[C@H](O)c3ccc(c(Cl)c3)Oc3cc2cc(c3O[C@@H]2O[C@H](CO)[C@@H](O)[C@H](O)[C@H]2O[C@H]2C[C@](C)(NCc3ccc(OCc4cn(CCCCC(=O)N[C@H](C(=O)N[C@@H](CCN)C(=O)N[C@H]5CCNC(=O)[C@H]([C@@H](C)O)NC(=O)[C@H](CCN)NC(=O)[C@H](CCN)NC(=O)[C@H](CC(C)C)NC(=O)[C@@H](CC(C)C)NC(=O)[C@H](CCN)NC5=O)[C@@H](C)O)nn4)c(OC)c3)[C@H](O)[C@H](C)O2)Oc2ccc(cc2Cl)[C@H]1O	broth microdilution	vancomycin-resistant vanB, tryptic soy broth	20 to 24 h, 37 °C, 0.002% polysorbate 80	8 µg/mL
CC(C)CCCCCCCCC/C=C/C(=O)N[C@@H](CC(N)=O)C(=O)N[C@H]1CNC(=O)[C@@H]2CCCN2C(=O)[C@H](C(C)C)NC(=O)[C@@H](CN)NC(=O)CNC(=O)[C@H](CC(=O)O)NC(=O)CNC(=O)[C@H](CC(=O)O)NC(=O)[C@H](CC(=O)O)NC(=O)[C@H]2CCCCN2C1=O	broth microdilution	daptomycin-resistant isolate, Mueller-Hinton broth, Mg2+ 10 mg/L	16 h, with: Ca2+ 10 mM	2 µg/mL
CCCCCCC#Cc1cncc(-c2nnc(SCc3ccc(Cl)cc3)n2C)c1	broth microdilution	ATCC 51559 MDR VRE	18 to 24 h, 37 °C	> 64 µg/mL
CN[C@H](CC(C)C)C(=O)N[C@H]1C(=O)N[C@@H](CC(N)=O)C(=O)N[C@H]2C(=O)N[C@H]3C(=O)N[C@H](C(=O)N[C@H](C(=O)NCc4cn(CC(=O)N[C@H](C(=O)N[C@@H](CCN)C(=O)N[C@H]5CCNC(=O)[C@H]([C@@H](C)O)NC(=O)[C@H](CCN)NC(=O)[C@H](CCN)NC(=O)[C@H](CC(C)C)NC(=O)[C@@H](CC(C)C)NC(=O)[C@H](CCN)NC5=O)[C@@H](C)O)nn4)c4cc(O)cc(O)c4-c4cc3ccc4O)[C@H](O)c3ccc(c(Cl)c3)Oc3cc2cc(c3O[C@@H]2O[C@H](CO)[C@@H](O)[C@H](O)[C@H]2O[C@H]2C[C@](C)(N)[C@H](O)[C@H](C)O2)Oc2ccc(cc2Cl)[C@H]1O	broth microdilution	vancomycin-resistant vanB, tryptic soy broth	20 to 24 h, 37 °C, 0.002% polysorbate 80	2 µg/mL
Cc1ccc2[nH]c3c(c2c1)CCCC3NCCc1ccc(O)cc1 (stereo not shown)	broth microdilution	BM4147 vancomycin-resistant		16 µg/mL
CC(C)C[C@@H](NC(=O)[C@@H](CCCNC(=N)N)NC(=O)[C@H](N)CCCNC(=N)N)C(=O)N[C@H](CC(C)C)C(=O)N[C@H](CCCNC(=N)N)C(=O)N[C@H](CCCCN)C(=O)N[C@H](CC(C)C)C(=O)N[C@H](CCCCN)C(=O)NCC(=O)N[C@H](CCCCN)C(=O)N[C@H](CCCCN)C(=O)N[C@H](CC(C)C)C(=O)N[C@H](Cc1ccc(O)cc1)C(=O)N[C@H](CC(C)C)C(=O)N[C@H](Cc1ccc(O)cc1)C(=O)N[C@H](Cc1ccccc1)C(=O)N[C@H](CCCCN)C(=O)N[C@H](CC(C)C)C(=O)N[C@H](CCC(N)=O)C(=O)N[C@H](CC(C)C)C(=O)N[C@H](CC(C)C)C(=O)N[C@H](CCCCN)C(=O)N[C@H](CCCCN)C(N)=O		ATCC 51559, vancomycin-resistant, Mueller-Hinton broth	24 h	2 µM
CC[C@H](C)[C@H](N)C(=O)N[C@@H](CCCNC(=N)N)C(=O)N[C@H](C(=O)N[C@@H](Cc1c[nH]c2ccccc12)C(=O)N[C@@H](CCCCN)C(=O)N[C@@H](CCCCN)C(=O)N[C@H](C(=O)N[C@H](C(=O)N[C@@H](CCCNC(=N)N)C(=O)N[C@@H](CCCCN)C(=O)N[C@@H](CCSC)C(=O)N[C@@H](CCCCN)C(=O)N[C@@H](C)C(=O)N[C@H](C(=O)N[C@@H](Cc1ccc(O)cc1)C(=O)N[C@@H](Cc1c[nH]cn1)C(N)=O)[C@@H](C)CC)C(C)C)[C@@H](C)CC)C(C)C	broth dilution	KCTC 13225		> 100 µM
C#CCOc1ccc(CN[C@@]2(C)C[C@H](O[C@H]3[C@H](Oc4c5cc6cc4Oc4ccc(cc4Cl)[C@@H](O)[C@@H](NC(=O)[C@@H](CC(C)C)NC)C(=O)N[C@@H](CC(N)=O)C(=O)N[C@H]6C(=O)N[C@H]4C(=O)N[C@H](C(=O)N[C@H](C(=O)O)c6cc(O)cc(O)c6-c6cc4ccc6O)[C@H](O)c4ccc(c(Cl)c4)O5)O[C@H](CO)[C@@H](O)[C@@H]3O)O[C@@H](C)[C@H]2O)cc1OC		VRE vanB		39 µM
CC[C@H](C)[C@H](NC(=O)[C@H](Cc1c[nH]c2ccccc12)NC(=O)[C@H](Cc1ccc(O)cc1)NC(=O)[C@H](CCCCN)NC(=O)[C@H](CC(C)C)NC(=O)[C@H](CO)NC(=O)[C@@H](N)Cc1ccccc1)C(=O)N[C@@H](CCCNC(=N)N)C(=O)N[C@@H](Cc1ccc(O)cc1)C(=O)N[C@@H](CCCCN)C(=O)N[C@@H](CCCNC(=N)N)C(=O)N[C@@H](CCC(N)=O)C(=O)NCC(=O)N[C@@H](C)C(=O)N[C@@H](C)C(=O)N[C@@H](CCCNC(=N)N)C(=O)N[C@@H](Cc1ccccc1)C(N)=O	broth dilution	KCTC 13225		25 µM
CN[C@H](CC(C)C)C(=O)N[C@H]1C(=O)N[C@@H](CC(N)=O)C(=O)N[C@H]2C(=O)N[C@H]3C(=O)N[C@H](C(=O)N[C@H](C(=O)NCC(N)=O)c4cc(O)cc(O)c4-c4cc3ccc4O)[C@H](O)c3ccc(c(Cl)c3)Oc3cc2cc(c3O[C@@H]2O[C@H](CO)[C@@H](O)[C@H](O)[C@H]2O[C@H]2C[C@](C)(NCc3ccc(OCc4cn(CC(=O)N[C@H](C(=O)N[C@@H](CCN)C(=O)N[C@H]5CCNC(=O)[C@H]([C@@H](C)O)NC(=O)[C@H](CCN)NC(=O)[C@H](CCN)NC(=O)[C@H](CC(C)C)NC(=O)[C@@H](CC(C)C)NC(=O)[C@H](CCN)NC5=O)[C@@H](C)O)nn4)c(OC)c3)[C@H](O)[C@H](C)O2)Oc2ccc(cc2Cl)[C@H]1O		VRE vanB		0.19 µM
CC[C@H](C)[C@H](NC(=O)[C@@H](CCC(=O)O)NC(=O)[C@H](CC(C)C)NC(=O)c1cccc(C(=O)O)n1)C(=O)N[C@H]1CCCCNC(=O)[C@H](CC(N)=O)NC(=O)[C@@H](CC(=O)O)NC(=O)[C@H](Cc2c[nH]cn2)NC(=O)[C@@H](Cc2ccccc2)NC(=O)[C@H]([C@@H](C)CC)NC(=O)[C@@H](CCCN)NC1=O		VanB vancomycin-resistant	18 h, 37 °C, 0.3 mM ZnSO4 LB	> 64 µg/mL
C#CCOc1ccc(CN[C@@]2(C)C[C@H](O[C@H]3[C@H](Oc4c5cc6cc4Oc4ccc(cc4Cl)[C@@H](O)[C@@H](NC(=O)[C@@H](CC(C)C)NC)C(=O)N[C@@H](CC(N)=O)C(=O)N[C@H]6C(=O)N[C@H]4C(=O)N[C@H](C(=O)N[C@H](C(=O)NCC(N)=O)c6cc(O)cc(O)c6-c6cc4ccc6O)[C@H](O)c4ccc(c(Cl)c4)O5)O[C@H](CO)[C@@H](O)[C@@H]3O)O[C@@H](C)[C@H]2O)cc1OC		VRE vanB		19 µM
Oc1c(Br)cc(Br)c2nc3cc(C(F)(F)F)ccc3nc12	broth microdilution	vancomycin-resistant 700221, brain-heart infusion broth		0.15 µM
CC[C@H](C)[C@@H]1NC(=O)[C@@H]([C@@H](C)O)NC(=O)CNC(=O)[C@H](CC(=O)O)NC(=O)CNC(=O)[C@H](CC(=O)O)NC(=O)CNC(=O)[C@H]2CCCCN2C(=O)[C@@H](NC(=O)[C@H](CC(=O)O)NC(=O)/C=C/CCCCCCCCCC(C)C)CNC(=O)[C@@H]2CCCN2C1=O	broth microdilution	daptomycin-resistant isolate, Mueller-Hinton broth, Mg2+ 10 mg/L	16 h, with: Ca2+ 5 mM	8 µg/mL
C=C1NC(=O)C2C[S+]([O-])CC3NC(=O)C(CSC(C)C(NC(=S)C(Cc4cnc[nH]4)NC(=O)c4csc(C(C)NC(C)=O)n4)C(=O)N[C@H](CC(C)C(=O)NC(=O)CC(C(=O)O)NC(=O)C(C)NC3=O)C(=O)N2)NC(=O)[C@@H]2CCCN2C(=O)[C@@H](CC(C)C)NC1=O (stereo partly shown)		BM4147-1		> 32 µg/mL

Excerpt of the above:
Structure (SMILES)	assay	test system	conditions	MIC
C#CCOc1ccc(CN[C@@]2(C)C[C@H](O[C@H]3[C@H](Oc4c5cc6cc4Oc4ccc(cc4Cl)[C@@H](O)[C@@H](NC(=O)[C@@H](CC(C)C)NC)C(=O)N[C@@H](CC(N)=O)C(=O)N[C@H]6C(=O)N[C@H]4C(=O)N[C@H](C(=O)N[C@H](C(=O)O)c6cc(O)cc(O)c6-c6cc4ccc6O)[C@H](O)c4ccc(c(Cl)c4)O5)O[C@H](CO)[C@@H](O)[C@@H]3O)O[C@@H](C)[C@H]2O)cc1OC		VRE vanB		39 µM
CCCCCCC#Cc1cncc(-c2nnc(SCc3ccc(Cl)cc3)n2C)c1	broth microdilution	ATCC 51559 MDR VRE	18 to 24 h, 37 °C	> 64 µg/mL
